Results gathered from unrelated publications.
Every numbered part comes from another study and shows a few of its results, in no order. Substitutions count along the parent as printed.

Set 1
Target: Sal-like protein 4, full length isoform A (SALL4, Homo sapiens, UniProt Q9UJQ4, residues 1-1053)
Sequence of UniProt Q9UJQ4 (whole entry, looked up): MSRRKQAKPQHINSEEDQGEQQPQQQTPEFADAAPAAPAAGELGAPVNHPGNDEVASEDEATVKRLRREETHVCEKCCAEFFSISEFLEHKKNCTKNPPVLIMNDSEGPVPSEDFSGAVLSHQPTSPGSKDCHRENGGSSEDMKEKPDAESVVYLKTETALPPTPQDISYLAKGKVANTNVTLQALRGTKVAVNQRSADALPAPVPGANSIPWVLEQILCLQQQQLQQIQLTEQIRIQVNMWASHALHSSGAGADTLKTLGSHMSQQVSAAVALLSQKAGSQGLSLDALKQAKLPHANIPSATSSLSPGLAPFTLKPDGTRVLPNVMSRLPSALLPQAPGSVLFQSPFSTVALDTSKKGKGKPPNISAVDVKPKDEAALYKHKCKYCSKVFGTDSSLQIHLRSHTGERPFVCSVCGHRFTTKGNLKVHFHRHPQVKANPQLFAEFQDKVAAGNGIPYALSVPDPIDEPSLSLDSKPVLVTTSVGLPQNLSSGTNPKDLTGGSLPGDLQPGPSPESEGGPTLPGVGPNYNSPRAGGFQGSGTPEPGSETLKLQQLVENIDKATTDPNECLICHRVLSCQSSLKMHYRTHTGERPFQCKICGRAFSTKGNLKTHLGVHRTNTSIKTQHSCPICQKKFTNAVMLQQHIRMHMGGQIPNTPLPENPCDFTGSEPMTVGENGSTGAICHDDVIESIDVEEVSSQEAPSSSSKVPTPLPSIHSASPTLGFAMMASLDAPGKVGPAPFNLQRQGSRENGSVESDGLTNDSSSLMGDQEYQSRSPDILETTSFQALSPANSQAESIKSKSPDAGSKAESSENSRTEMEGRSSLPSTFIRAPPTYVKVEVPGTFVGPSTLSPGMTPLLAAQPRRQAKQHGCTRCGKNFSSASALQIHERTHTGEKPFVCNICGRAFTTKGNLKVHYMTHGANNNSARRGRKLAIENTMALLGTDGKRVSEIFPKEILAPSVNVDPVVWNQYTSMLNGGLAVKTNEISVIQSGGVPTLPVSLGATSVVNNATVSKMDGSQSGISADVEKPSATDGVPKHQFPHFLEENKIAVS
Method: universal PBM
Molecule type: double-stranded DNA, one strand shown
Medium: in vitro
Tested at: 600 nM
Setting: 8-mer, flanks averaged, mean of replicates
Reading: higher = stronger binding
The E-score of `CACGCTTA` is reported as 0.0197.
`AATTCAGC` gave an E-score of 0.00053.
The E-score of `AAGCTTTC` is reported as 0.0695.
`AGAGAGAA` gave an E-score of -0.0928.
With `AAGGGGCC` the E-score was -0.392.
`ACCGTCAT` gave an E-score of 0.0207.
With `ATCAATCG` the E-score was 0.0778.
For `CCCGTGAG`, the E-score was -0.301.
With `AGCCATAG` the E-score was -0.125.
The E-score of `AAGACGGC` is reported as -0.19.
`CCGACTGA` has an E-score of -0.14.
For `AAGTTACA`, the E-score was 0.119.

Set 2
Target: Centromere-binding protein 1, full length, N-terminal tag (CBF1, Saccharomyces cerevisiae, UniProt P17106, residues 1-351)
Sequence of UniProt P17106 (whole entry, looked up): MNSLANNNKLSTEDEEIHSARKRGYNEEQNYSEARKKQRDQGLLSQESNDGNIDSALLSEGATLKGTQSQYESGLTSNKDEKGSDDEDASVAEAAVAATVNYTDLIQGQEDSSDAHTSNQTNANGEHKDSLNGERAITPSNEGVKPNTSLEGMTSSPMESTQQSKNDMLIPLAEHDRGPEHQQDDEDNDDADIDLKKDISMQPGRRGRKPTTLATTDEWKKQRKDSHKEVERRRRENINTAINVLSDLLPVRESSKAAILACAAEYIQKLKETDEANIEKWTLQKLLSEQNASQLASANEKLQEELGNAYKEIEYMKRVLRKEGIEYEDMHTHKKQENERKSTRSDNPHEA
Method: protein-binding microarray
Molecule type: double-stranded DNA, one strand shown
Medium: in vitro
Tested at: 0.8 µM
Setting: whole 60-bp probe, no competitor
Reading: higher = stronger binding
With `CTATAAGAGATTAGACACGTTATCTGGAGGTAATTCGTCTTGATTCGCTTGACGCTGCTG` the fluorescence intensity was 609 a.u.
For `CCTAACTACTATAGTTTTGTGATATAGCTTCGTACAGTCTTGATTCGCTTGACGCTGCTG`, the fluorescence intensity was 488 a.u.
`CTACTTTACTTACACCACCAAAAACCACTTTCGTTCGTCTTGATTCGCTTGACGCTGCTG` has a fluorescence intensity of 567 a.u.
`GAACTTCAAACAAACCACGTGATGGTCTACACGTAGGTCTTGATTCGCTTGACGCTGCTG` gave a fluorescence intensity of 11600 a.u.
For `GAACTGTTGCAAGCTCACGTGAAAATGTGGATTTAGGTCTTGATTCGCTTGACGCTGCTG`, the fluorescence intensity was 3310 a.u.
`CTAGTTTACAATAATCACGAAAATACATATAGGTTCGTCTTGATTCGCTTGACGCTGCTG` has a fluorescence intensity of 544 a.u.
The fluorescence intensity of `GAATAGGAAACGCATGTGGTAGCTCGTTTCGTCTAGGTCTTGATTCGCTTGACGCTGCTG` is reported as 524 a.u.
The fluorescence intensity of `GAAGTGGCGCGCGATCACGGAGTTGCGTAACTGTAGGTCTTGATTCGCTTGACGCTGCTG` is reported as 546 a.u.
With `CCTAACTACTATATGATCATGAAATAGCTTCGTACAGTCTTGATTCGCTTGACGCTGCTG` the fluorescence intensity was 559 a.u.
For `GAAGAACCGACGATCCTCGTGAGGCTTGCTTGGTAGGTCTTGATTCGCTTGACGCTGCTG`, the fluorescence intensity was 527 a.u.
`GAACAAATTTACAATGGAGTCACCTAAGCATTTTAGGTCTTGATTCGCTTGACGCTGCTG` has a fluorescence intensity of 545 a.u.
The fluorescence intensity of `CTAGTGGCTTCTTGTCACGCCATACGTTACGCGTTCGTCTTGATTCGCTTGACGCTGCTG` is reported as 886 a.u.

Set 3
Target: ABI1, truncated, D143A, DHFR fusion (Arabidopsis thaliana)
Method: DHFR PCA, deep sequencing
Medium: yeast
Setting: methotrexate growth selection, single substitutions
Together with: (+)-ABA 0.11 µM
Baseline: wild-type fitted maximum
Reading: higher = stronger binding
Starting sequence: PYL1, truncated, DHFR fusion (Arabidopsis thaliana); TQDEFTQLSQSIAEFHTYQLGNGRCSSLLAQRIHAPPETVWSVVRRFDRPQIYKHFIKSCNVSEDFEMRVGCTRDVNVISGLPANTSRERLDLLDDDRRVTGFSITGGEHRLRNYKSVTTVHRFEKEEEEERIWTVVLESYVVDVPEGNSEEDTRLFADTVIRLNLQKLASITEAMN; partner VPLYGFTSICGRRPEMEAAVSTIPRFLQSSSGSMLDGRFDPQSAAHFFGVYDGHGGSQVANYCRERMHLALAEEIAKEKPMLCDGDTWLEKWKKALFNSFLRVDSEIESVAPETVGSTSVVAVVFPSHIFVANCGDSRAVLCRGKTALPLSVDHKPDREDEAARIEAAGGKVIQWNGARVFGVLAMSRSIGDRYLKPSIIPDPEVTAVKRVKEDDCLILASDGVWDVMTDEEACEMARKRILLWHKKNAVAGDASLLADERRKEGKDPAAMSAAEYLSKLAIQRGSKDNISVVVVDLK
For `R32G`, “relative binding score” read 6.71%.
Under “relative binding score”, `F15Q` is recorded as -4.13%.
For `L166H`, “relative binding score” read 12.6%.
For `N149P`, “relative binding score” read 2.85%.
`Q7G`: “relative binding score” 34.4%.
`T160P` — result for “relative binding score”: -4.06%.

Further values, each from its own experiment
For `PhoQ, residues 284 288 289 292 302 303 DDMDFR`, the fold induction was 1.97 (PhoP, residues 12 14 15 18 19 NHFRA (Escherichia coli, UniProt P23836); Sort-seq, refers to: YFP reporter; E. coli; PhoQ-PhoP variant library, together with: 10 µM Mg2+; baseline: high Mg2+ state, higher = stronger signaling).

A few entries again (set 3):
Under “relative binding score”, `F15Q` is recorded as -4.13%.
For `L166H`, “relative binding score” read 12.6%.
`T160P` — result for “relative binding score”: -4.06%.
For `N149P`, “relative binding score” read 2.85%.
`Q7G`: “relative binding score” 34.4%.
